{"data": "Assay results of several laboratories", "note": "Numbered parts are unrelated; each lists some results of a single study. Changes are numbered by the printed parent chain."}
{"data": "Set 1", "target": "ABI1, truncated, D143A, DHFR fusion (Arabidopsis thaliana)", "method": "DHFR PCA, deep sequencing", "sample": "yeast", "setting": "methotrexate growth selection, single substitutions", "with": "(+)-ABA 0.11 µM", "baseline": "wild-type fitted maximum", "direction": "higher = stronger binding", "starting sequence": "PYL1, truncated, DHFR fusion (Arabidopsis thaliana); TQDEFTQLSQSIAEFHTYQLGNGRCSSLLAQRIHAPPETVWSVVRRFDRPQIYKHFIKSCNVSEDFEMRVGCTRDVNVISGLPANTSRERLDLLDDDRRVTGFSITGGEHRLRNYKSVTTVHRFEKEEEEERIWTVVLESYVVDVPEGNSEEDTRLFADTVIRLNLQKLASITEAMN; partner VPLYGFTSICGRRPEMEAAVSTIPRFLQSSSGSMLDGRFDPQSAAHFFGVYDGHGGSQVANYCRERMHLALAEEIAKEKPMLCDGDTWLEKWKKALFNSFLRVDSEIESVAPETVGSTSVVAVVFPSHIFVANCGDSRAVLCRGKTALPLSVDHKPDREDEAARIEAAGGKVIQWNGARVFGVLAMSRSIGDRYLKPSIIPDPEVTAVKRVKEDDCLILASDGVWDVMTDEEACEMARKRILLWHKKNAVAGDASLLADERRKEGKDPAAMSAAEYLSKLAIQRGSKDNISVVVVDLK"}
{"Variant": "G148D", "relative binding score [%]": 10.3}
{"Variant": "G108R", "relative binding score [%]": -2.36}
{"Variant": "V143C", "relative binding score [%]": 43.8}
{"Variant": "T154P", "relative binding score [%]": -7.52}
{"Variant": "E38I", "relative binding score [%]": -1.56}
{"Variant": "E38H", "relative binding score [%]": 4.42}
{"Variant": "L169Y", "relative binding score [%]": 5.6}
{"Variant": "T135M", "relative binding score [%]": -7.84}
{"Variant": "Y53K", "relative binding score [%]": -4.4}
{"Variant": "L94R", "relative binding score [%]": -10.9}
{"Variant": "L138Y", "relative binding score [%]": -4.89}
{"Variant": "R98P", "relative binding score [%]": -4.65}
{"Variant": "L8K", "relative binding score [%]": 8.02}
{"data": "Set 2", "target": "CCNB2, cyclin fold, Cln2 fusion (human)", "method": "yeast growth competition, sequencing", "sample": "yeast", "setting": "weak parent motif", "baseline": "not given", "direction": "higher = stronger binding", "starting sequence": "CDKN1B docking peptide (human); PSACRNLFGPVDH"}
{"Variant": "C4M", "normalised enrichment score": -0.0261}
{"Variant": "C4R", "normalised enrichment score": 0.693}
{"Variant": "R5D", "normalised enrichment score": -0.494}
{"Variant": "F8G", "normalised enrichment score": -0.0664}
{"Variant": "P1W", "normalised enrichment score": 0.609}
{"Variant": "P1A", "normalised enrichment score": 0.135}
{"Variant": "D12G", "normalised enrichment score": -0.0113}
{"Variant": "R5K", "normalised enrichment score": -0.00831}
{"Variant": "P10S", "normalised enrichment score": -0.13}
{"Variant": "V11R", "normalised enrichment score": 0.0818}
{"Variant": "L7Y", "normalised enrichment score": 0.24}
{"Variant": "P10T", "normalised enrichment score": 0.0485}
{"Variant": "H13E", "normalised enrichment score": -0.204}
{"data": "Set 3", "target": "Ras GTPase-activating protein-binding protein 1, full length (G3BP1, Homo sapiens, UniProt Q13283)", "method": "RNA Bind-n-Seq", "molecule type": "RNA", "sample": "in vitro", "tested at": "200 nM", "setting": "whole 134-nt RNA, ends assumed", "with": "150 mM KCl", "baseline": "input library", "direction": "higher = stronger binding", "constant ends, left off below": "GGGAGUUCUACAGUCCGACGAUC … UGGAAUUCUCGGGUGUCAAGG", "UniProt Q13283, sequence (whole entry, looked up)": "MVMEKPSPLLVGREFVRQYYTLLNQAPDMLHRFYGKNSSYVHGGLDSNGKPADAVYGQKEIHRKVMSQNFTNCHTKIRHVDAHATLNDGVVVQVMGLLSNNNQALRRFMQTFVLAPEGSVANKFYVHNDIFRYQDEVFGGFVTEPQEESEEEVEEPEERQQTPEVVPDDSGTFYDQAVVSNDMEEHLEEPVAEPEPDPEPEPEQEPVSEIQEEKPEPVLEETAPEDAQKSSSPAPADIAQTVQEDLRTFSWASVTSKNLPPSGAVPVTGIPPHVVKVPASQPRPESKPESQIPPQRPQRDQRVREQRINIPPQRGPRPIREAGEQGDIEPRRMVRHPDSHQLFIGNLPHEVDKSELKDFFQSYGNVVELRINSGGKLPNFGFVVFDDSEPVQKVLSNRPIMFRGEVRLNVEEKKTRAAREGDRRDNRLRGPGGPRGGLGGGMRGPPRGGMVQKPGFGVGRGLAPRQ"}
{"Strand": "CCAUAGACCCCUUUCUUCUCCCCUUCCCCACGGUAGGAACAUAGCGUGUUUAUAUUUUAUGGCCAAACUAUUUUGAAUUUUGUUGUCCGG", "log2 enrichment": -0.0825}
{"Strand": "UGGGAGGUGGAUUUAGUUUAUUUUUUUAGCUCAUUUCCAGGGGUGGGAAUUUUUUUUUAAUAUGUGUCAUGAAUAAAGUUGUUUUUGAAA", "log2 enrichment": 0.163}
{"Strand": "AAGUCCUGUGCUACACAUCGUAUGUACCGAAUCGGGGCCCCGGCCCCGGCCCCGGGGAAAGUAUUAUGUUACGCCGUUCGGAUCUGCACU", "log2 enrichment": -1.03}
{"Strand": "UGGCCCUGGUGGCAUGCGGGGAGGAAGAGGUGGCCUCAAGGAUCGUGGUGGUCCCGGUGGAAUGUUCAGAGGUGGCCGUGGUGGAGACAG", "log2 enrichment": 0.372}
{"Strand": "UGGGAGGUGGAUUUUGUUUAUUUUUUUUGCUCAUUUCCAGGGGUGGGAAUUUUUUUUUAAUAUGUGUCAUGAAUAAAGUUGUUUUUGAAA", "log2 enrichment": 0.283}
{"Strand": "UCAUUGCAUGAAAAGUGGAAAAGUUUAGAUCUAUGGAAACAGAACUGUUGCCUAUAUGGAAAAUCAGUGCCUUGUGGCAAUACAGGUAAG", "log2 enrichment": -1.87}
{"Strand": "UAACUUUAGAGGAGGAUCUGAUGGAUAUGGCAGUGGACGUGGAUUUGGGGAUGGCUAUAAUGGGUAUGUAGGAGGACCUGGAGGUGGCAA", "log2 enrichment": 0.232}
{"Strand": "GCAGGAAGUAAAAACAAAUGGAAAUGCUUCGGAUAGUGGCAGGGGUGGGGGUUGCUAAGGAAAGGGUGGGAUGGGAGUGAGUAAAGAGUU", "log2 enrichment": 0.819}
{"Strand": "UCCUGUGCUACACAUCGUAUGUACCGAAUCAAACCCCCCCAAAUUUAAACCCCCCCAAAAAAGUAUUAUGUUACGCCGUUCGGAUCUGCA", "log2 enrichment": 1.37}
{"Strand": "ACCAUGCAGGUGGGCAUCUUUGGAAAGUGGGGCAAGGGGGGGAUAGGGAGGGGGGUAACACUUUGGGAACAGGUGGUCCCAGGUCGUUUC", "log2 enrichment": 0.877}
{"Strand": "CACAGACAACACGCACCCACACAGACACAGAGGGAAGGGGUUGGGAUGGGGACAGCGUGCACAGCAGGGCGGGGUAGGACCCCAGCCCCU", "log2 enrichment": 1.74}
{"Strand": "AGUCCUGUGCUACACAUCGUAUGUACCGAAUCGGGAAAAGGAAAAGGGGAAAAGGGGAAAGUAUUAUGUUACGCCGUUCGGAUCUGCACU", "log2 enrichment": -0.132}
{"Strand": "UCAAGUCCUGUGCUACACAUCGUAUGUACCGAAUCGGUUUUUGGUGGAAAAAGGAAAGUAUUAUGUUACGCCGUUCGGAUCUGCACUUCC", "log2 enrichment": -0.819}
{"Strand": "GCAGGAAGUAAAAACAAAUGGGAAUGCUUCGGAUAGUGGCAGGGGUGGGGGUUGCUAAGGAAAGGGUGGGAUGGGAGUGGGUAAAGAGUU", "log2 enrichment": 0.778}
{"data": "Other studies, line by line"}
{"Molecule": "PhoQ, residues 284 288 289 292 302 303 NLGVHL", "target": "PhoP, residues 12 14 15 18 19 LHATL (Escherichia coli, UniProt P23836)", "assay": "Sort-seq, item: YFP reporter", "system": "E. coli", "conditions": "PhoQ-PhoP variant library, with: 10 µM Mg2+", "how to read": "baseline: high Mg2+ state, higher = stronger signaling", "measurement": "fold induction", "result": 0.0689}
{"note": "A few entries again (set 1):"}
{"Variant": "L138Y", "relative binding score [%]": -4.89}
{"Variant": "L8K", "relative binding score [%]": 8.02}
{"Variant": "E38H", "relative binding score [%]": 4.42}
{"Variant": "T154P", "relative binding score [%]": -7.52}
{"Variant": "V143C", "relative binding score [%]": 43.8}
